Results gathered from unrelated publications.
A part holds a random share of what one study measured.

Set 1 — method: RNA Bind-n-Seq; form: RNA; sample: in vitro; tested at: 365 nM; baseline: no-protein control; reading: higher = stronger binding
Target: RNA binding protein fox-1 homolog 2, RRM domain, GST-SBP tag (RBFOX2, Homo sapiens, UniProt O43251-10, residues 100-194)
Notes: natural RNA segment, single round, ends assumed
Shared flanks, not repeated: GGGAGUUCUACAGUCCGACGAUC … UGGAAUUCUCGGGUGCCAA
Residues (chain): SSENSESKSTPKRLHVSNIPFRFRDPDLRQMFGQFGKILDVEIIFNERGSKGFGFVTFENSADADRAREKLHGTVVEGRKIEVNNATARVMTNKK
Oligonucleotide	RBNS enrichment (R)
GGAAAUGGGACUUUGUGCAGGUAACCACCCUGCACUUCAGGUAAUGUUCCUGUCACAGCUGUCGACUACCCCACGCUGCAGGAAAUCCAUUCAGAAAUGAGCUAACAGUC	0.262
AAACACAAGUAUUCAUUAAUGUUUUAUAUCUUCACUAAAAUUCUAUAGUUAUGAAACUAUCAAUCAAGGUGUUAUAUUUCAGUCAGAAGUGAAAAUUUAUGAAGAGUAUU	0.418
UACUCAGAACUCAGGAGCCUUGCCCAGCCGCUCAGUCACCUGCCUGCUGUGCUUCCGGGCAGUGCCAGGCACUCCCUUGUGGGGCUCAUGCUCCUUCUACCUACCGGUCA	0.24
CCCCUUGCAGCUGUUGGAAUCUCUGCAAGAACCUCUGUAUUCUUCUAAUAAAUUCCCUCUUUUAUUUAAACUAGUUUGACUGGUUUCUGUUCCAUGCAACCAAAUGGUCC	0.986
GUAAAGUCAGAAUGCGGGGCCAGGAGGGCCUCUUCCUCCCUCUUCCCUCCCAAGAAACCAGGUUGGAGAGGCCCAAGUCACUGGGGCCCACCCUUGCUAGGGUUUCCGUA	0.329
GUAUUACACAAGGGCAUCGAGUUCCAGGUGCCCCCCUUUUAGGACAGAGUUGUUUCCCAAUUCUGGAGGGAAGCUGAAUGGACACGGCUUCGUCAGUUUGCAUUUCUUUA	0.979
GUUGAGAAAGAAACACUUUAAGGGCGGAAGGCUGGGUGGCUUCCCCGAGAACUAUGAUCUUCCUAUCUGUCGCCUUGCCCACAGCUUCAGGAUGCUCUAAGUUGGAGUCA	1
GUAUCAGGUUGCUGGGGAGUUUCCACUCUUCUCUGGUGAUUGUUCCUUCCCUCCCUUCCUCUCCCACCAUGCGAUGAGCAUCCUUUCAGGCCAGUGUCUGCAGAGCCUCA	0.642
ACUCUCAGCUUGCAGGUCUUCGUGAGUCACUGAGAGGAUUCCAGGCAGCUAUCUCGAGAGCCACUGCUAGAACACCUUUUCCUGGAGGCUGCCCCACCAAAUGCUCAACC	6.41
UUUUAAAAGAUCUUAAAAAUAAUGCCUCUGUCUAGCAUGCCAACAAGAAUGCAUUGAUAUUGUGAACAUUUGUGAUACAUGUAUUAAUAAAUAGAGCAAUUAAAAAUGGC	8.94
UCUAUUUGCCAAUGAUAGAUCACUAAUUACAAAGCUAGUAGUUCUCCUUUGGGUAAGAGUCUGUUUGCCAUACAUCACUCUUCCACUGUGGCUUGGUAUUGUGCAGAUUA	2.74
GCAGAGGCUGGAGGCAGGGCCUUGCCCAGAGAUGCCUCCACCGCUGCCUAAGUGGCUGCUGACUGAUGUUGAGGGAACAGACAGGAGAAAUGCAUCCAUUCCUCAGGGAC	0.886

Set 2 — method: RNA Bind-n-Seq; form: RNA; sample: in vitro; tested at: not given; baseline: input RNA pool; reading: higher = stronger binding
Target: RING finger protein unkempt homolog, zinc fingers 1-6, GST-SBP tag (UNK, Homo sapiens, UniProt Q9C0B0, residues 30-357)
UniProt Q9C0B0, sequence (30-357, looked up): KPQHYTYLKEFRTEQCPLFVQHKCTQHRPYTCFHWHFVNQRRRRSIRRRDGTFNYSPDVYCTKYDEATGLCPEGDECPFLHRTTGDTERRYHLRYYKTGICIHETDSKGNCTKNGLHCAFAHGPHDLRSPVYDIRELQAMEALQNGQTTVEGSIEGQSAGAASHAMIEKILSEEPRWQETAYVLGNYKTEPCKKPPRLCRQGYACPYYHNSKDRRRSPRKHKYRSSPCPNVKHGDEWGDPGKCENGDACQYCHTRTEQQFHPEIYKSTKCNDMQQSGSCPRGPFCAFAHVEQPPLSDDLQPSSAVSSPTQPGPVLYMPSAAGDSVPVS
Notes: RNA with constant flanks, human-mouse chimeric sites, ends assumed
Shared flanks, not repeated: GGGAGUUCUACAGUCCGACGAUC … CAACAGAGGAUUGAGCAUCA
Oligonucleotide	bound/input enrichment
GCAAAGGAUGAUGAGGCGGCAGCUGUUGCACUUUCCUCUCUCGUUCAUGCUUUGGAUGAGUUAAACAUGGUCGCCAUCGUCCGAUAUGCUUAUGACAAAAGAUCUAAUCCUCAAGUUGGU	0.195 ratio
CAGUCCCGCGACAGCGUGGGACAAUGUUGUGAACAAAAACUCAAAGCGGACCCUCUAUUGUAGUUCUUGAUUCUCGAAAUGUGCUAUUAUUGUUUGUCUUUUUUUUUUUUUUUUUAAAGA	0.993 ratio
AACUUCGUGCAUCGGUUUCCCUUUGUAGCUGUUUCAAUUGGCUUCCUUGUGAAUAAAGAGAUGGAGUUUGGAGUUGUGUACAGCUGUGUGGAAGGCAAGAUGUACACCGGCAGGAAAGGG	0.309 ratio
GGUGGGGUGGUCAUUGCCGUUUGAGCUCUGCUGAUUCAUGAGUCGCCUUCAAAACUCUCGCAUAGGGUUGACAAUGUGGGGGGGUGGGGGAUCCAGCUUAUUCUUUUAUUUUCAAGUCCA	1.69 ratio
AAAGAGAAACUAAAGCAACUAAUAGAGAAGAGGAUUGGCAAAGAGAAAUUUCAUAGAAAACUAGGAUUUUAUUAGCAACAUGAGUUAUAUUCCAGAGCGUCUCAGAAACCCCAGCCAAAC	22.2 ratio
AACUUCGUGCAUCGGUUUCCCUUUGUAGCUGUUUCAAUUGGCUUCCUUGUGAAUAAAGAGAUGGAGUUUGGAAUUGUGUACAGUUGUGUGGAAGAUAAGAUGUACACUGCCAGAAAAGGG	0.398 ratio
AAAGAGUGGAUAGAAUGUGCACAUGGAAUCGGUGGGACCCGGGCGAAAAAGGAGUGCAAGAUAGAGUUCGAUGACUUCGAAGAGUGCUUGCUUCGGUACAAAACGAUGAGGCGAAUGCAU	0.402 ratio
AGAUUCCCCCUCCUGAGGCCUUCUCCAAAGUUGGAGUCUCUUACAGAUGCCUCAUCCCCUGUUAGCGUUUUAGUUUGGACCACCCAGCCUUGGACAAUUCCAGCCAACCAGGCAAUUUGC	1.34 ratio
GUAGCUGGGACUACAGAAAUGCUGGUAAUUUCAGUCAGUGAGUCGUGACUUCUGAUGACCUAGCAAAUGUUGGCAUUGUUGACUGCUGAGAAGAUACUUCUGAGGACCCACGUCUAAGGU	0.127 ratio
AUCAAAUACUUUGGGGACAUCAUUAGUGUGGGACAGAGACUGUUGCAAGGAGCUCGGAUCUUAGGGAUUCCAGUUAUCAUAACGGAACAAUACCCCAAAGGUCUUGGCAGCACCGUUCAA	0.155 ratio
GGCUGCUGGUGACUGUCCUGGAGUGGCUGGAGUUCCCGCCGGAGCGCGGCCAGACUAAUUUUAGAAAAUGCCAAGUAGGAAGUUUGUUGAGGGUGAAGUGGUAAGAGGUCGAUGGCCUGG	7.39 ratio

Set 3 — method: universal PBM; form: double-stranded DNA, one strand shown; sample: in vitro; tested at: 600 nM; reading: higher = stronger binding
Target: Sal-like protein 4, full length isoform A (SALL4, Homo sapiens, UniProt Q9UJQ4, residues 1-1053)
UniProt Q9UJQ4, sequence (whole entry, looked up): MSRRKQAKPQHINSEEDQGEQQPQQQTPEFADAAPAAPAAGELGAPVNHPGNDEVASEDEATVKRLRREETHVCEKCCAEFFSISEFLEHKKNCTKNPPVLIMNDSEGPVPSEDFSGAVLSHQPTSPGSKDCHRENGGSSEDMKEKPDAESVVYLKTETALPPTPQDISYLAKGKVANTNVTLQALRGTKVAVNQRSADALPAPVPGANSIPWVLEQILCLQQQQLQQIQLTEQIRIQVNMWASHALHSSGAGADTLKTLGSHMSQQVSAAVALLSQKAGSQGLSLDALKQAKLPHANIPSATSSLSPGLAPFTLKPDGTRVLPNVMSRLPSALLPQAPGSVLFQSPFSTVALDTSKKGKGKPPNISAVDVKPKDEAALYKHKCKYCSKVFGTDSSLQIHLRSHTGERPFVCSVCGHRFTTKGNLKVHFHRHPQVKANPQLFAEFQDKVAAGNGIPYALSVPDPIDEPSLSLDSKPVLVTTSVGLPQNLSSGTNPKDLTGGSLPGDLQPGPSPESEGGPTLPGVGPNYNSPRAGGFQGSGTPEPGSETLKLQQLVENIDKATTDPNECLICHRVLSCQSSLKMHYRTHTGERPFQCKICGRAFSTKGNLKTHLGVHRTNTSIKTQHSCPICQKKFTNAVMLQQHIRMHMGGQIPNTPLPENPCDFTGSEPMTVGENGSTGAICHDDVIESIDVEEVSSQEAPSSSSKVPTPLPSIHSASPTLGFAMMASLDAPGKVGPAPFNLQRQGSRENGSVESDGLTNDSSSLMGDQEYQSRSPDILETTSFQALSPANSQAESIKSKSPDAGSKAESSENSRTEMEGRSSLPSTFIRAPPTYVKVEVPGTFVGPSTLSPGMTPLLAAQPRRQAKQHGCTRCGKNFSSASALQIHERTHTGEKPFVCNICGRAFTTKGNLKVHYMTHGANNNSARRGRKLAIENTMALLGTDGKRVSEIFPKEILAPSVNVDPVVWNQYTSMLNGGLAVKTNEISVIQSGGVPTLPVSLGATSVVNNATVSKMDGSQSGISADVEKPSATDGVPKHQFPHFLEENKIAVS
Notes: 8-mer, flanks averaged, mean of replicates
Oligonucleotide	E-score
TCTCTTCA	-0.0242
GGCTGAAA	0.0154
ACATTTTA	0.356
GTTTACGA	0.0471
CTCGTGGC	-0.171
CACCCTTA	-0.0785
CTTAACTA	0.177
ACTGGCAG	-0.199
AGCAACGA	0.0114
AGGTATCG	0.0308
CTGCTTAA	-0.0274
AACACAAA	0.178
AAGTGAGC	-0.151
ACTACGCG	-0.122
AGCGCTTC	-0.00409
GGGATAAC	-0.0342
ACACGTCG	-0.225
ACTCGATC	-0.117
AACCATCT	-0.104
AGCGGCGG	-0.308

Set 4 — method: RNA Bind-n-Seq; form: RNA; sample: in vitro; tested at: 200 nM; notes: whole 134-nt RNA, ends assumed; with: 150 mM LiCl; baseline: input library; reading: higher = stronger binding; each molecule: 7-deaza-guanosine replaces G
Target: Ras GTPase-activating protein-binding protein 1, full length (G3BP1, Homo sapiens, UniProt Q13283)
UniProt Q13283, sequence (whole entry, looked up): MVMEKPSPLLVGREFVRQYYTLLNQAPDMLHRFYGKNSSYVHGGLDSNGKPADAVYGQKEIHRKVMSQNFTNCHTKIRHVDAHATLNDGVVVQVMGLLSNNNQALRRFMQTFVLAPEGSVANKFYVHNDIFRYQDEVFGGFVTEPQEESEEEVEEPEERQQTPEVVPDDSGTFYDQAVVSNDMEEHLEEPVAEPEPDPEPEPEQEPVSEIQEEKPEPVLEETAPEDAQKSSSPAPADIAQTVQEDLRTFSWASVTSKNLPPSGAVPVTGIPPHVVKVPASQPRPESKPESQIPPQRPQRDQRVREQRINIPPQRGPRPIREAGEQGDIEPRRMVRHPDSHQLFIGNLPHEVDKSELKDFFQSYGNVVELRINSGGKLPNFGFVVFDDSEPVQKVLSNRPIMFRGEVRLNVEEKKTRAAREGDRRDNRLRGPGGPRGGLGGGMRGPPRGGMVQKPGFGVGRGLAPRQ
Shared flanks, not repeated: GGGAGUUCUACAGUCCGACGAUC … UGGAAUUCUCGGGUGUCAAGG
Oligonucleotide	log2 enrichment
AAGUCCUGUGCUACACAUCGUAUGUACCGAAUCGGAAAAAGGAAAAAGGAAAAAGGAAAGUAUUAUGUUACGCCGUUCGGAUCUGCACUU	-0.955
AAGUCCUGUGCUACACAUCGUAUGUACCGAAUCGGAGGUUUUUUUGGUUUUUUUGGAAAGUAUUAUGUUACGCCGUUCGGAUCUGCACUU	-0.785
GUCCUGUGCUACACAUCGUAUGUACCGAAUCGGGGUUUUUGGUUUUUGGGUUUUUGGGAAAGUAUUAUGUUACGCCGUUCGGAUCUGCAC	-0.418
UCAAGUCCUGUGCUACACAUCGUAUGUACCGAAUCGGUUUUUUUGGAAAGGUGGAAAGUAUUAUGUUACGCCGUUCGGAUCUGCACUUCC	-0.1
CCUCAAGUCCUGUGCUACACAUCGUAUGUACCGAAUCGGGCGGGGCGGGGCGGAAAGUAUUAUGUUACGCCGUUCGGAUCUGCACUUCCA	-0.442
UAACUUUAGAGGAGGAUCUGAUGGAUAUGGCAGUGGACGUGGUUUUGGGGAUGGCUAUAAUGGGUAUGGAGGAGGACCUGGAGGUGGCAA	0.127
UGGGAGGUGGAUUUGGUUUAUUUUUUUAGCUCAUUUCCAGGGGUGGGAAUUUUUUUUUAAUAUGUGUCAUGAAUAAAGUUGUUUUUGAAA	0.0427
GUCCUGUGCUACACAUCGUAUGUACCGAAUCAAAUUUUUUUAAAUUUAAACCCCCAAAAAAGUAUUAUGUUACGCCGUUCGGAUCUGCAC	0.293
AGUCCUGUGCUACACAUCGUAUGUACCGAAUCGGGUUUUUUUGGGUGGGUUUUUGGGAAAGUAUUAUGUUACGCCGUUCGGAUCUGCACU	-0.82
CUCAAGUCCUGUGCUACACAUCGUAUGUACCGAAUCGGGGCCGGCCGGGGCCGGAAAGUAUUAUGUUACGCCGUUCGGAUCUGCACUUCC	0.677
CUCAAGUCCUGUGCUACACAUCGUAUGUACCGAAUCGGAAAGGUUUGGUUUGGAAAGUAUUAUGUUACGCCGUUCGGAUCUGCACUUCCA	-0.02

A few entries again (set 4):
Oligonucleotide	log2 enrichment
GUCCUGUGCUACACAUCGUAUGUACCGAAUCGGGGUUUUUGGUUUUUGGGUUUUUGGGAAAGUAUUAUGUUACGCCGUUCGGAUCUGCAC	-0.418
UCAAGUCCUGUGCUACACAUCGUAUGUACCGAAUCGGUUUUUUUGGAAAGGUGGAAAGUAUUAUGUUACGCCGUUCGGAUCUGCACUUCC	-0.1
CCUCAAGUCCUGUGCUACACAUCGUAUGUACCGAAUCGGGCGGGGCGGGGCGGAAAGUAUUAUGUUACGCCGUUCGGAUCUGCACUUCCA	-0.442
UAACUUUAGAGGAGGAUCUGAUGGAUAUGGCAGUGGACGUGGUUUUGGGGAUGGCUAUAAUGGGUAUGGAGGAGGACCUGGAGGUGGCAA	0.127
UGGGAGGUGGAUUUGGUUUAUUUUUUUAGCUCAUUUCCAGGGGUGGGAAUUUUUUUUUAAUAUGUGUCAUGAAUAAAGUUGUUUUUGAAA	0.0427
GUCCUGUGCUACACAUCGUAUGUACCGAAUCAAAUUUUUUUAAAUUUAAACCCCCAAAAAAGUAUUAUGUUACGCCGUUCGGAUCUGCAC	0.293
AGUCCUGUGCUACACAUCGUAUGUACCGAAUCGGGUUUUUUUGGGUGGGUUUUUGGGAAAGUAUUAUGUUACGCCGUUCGGAUCUGCACU	-0.82
CUCAAGUCCUGUGCUACACAUCGUAUGUACCGAAUCGGGGCCGGCCGGGGCCGGAAAGUAUUAUGUUACGCCGUUCGGAUCUGCACUUCC	0.677
CUCAAGUCCUGUGCUACACAUCGUAUGUACCGAAUCGGAAAGGUUUGGUUUGGAAAGUAUUAUGUUACGCCGUUCGGAUCUGCACUUCCA	-0.02
